# Assay results pooled from the literature.
# Each line is one published result; not all experiments were run side by side.
# Spike glycoprotein RBD: Spike glycoprotein, RBD (Severe acute respiratory syndrome coronavirus 2, UniProt P0DTC2)
# Spike glycoprotein: Spike glycoprotein (Severe acute respiratory syndrome coronavirus 2, UniProt P0DTC2)
SMILES,tested on,assay,test system,conditions,endpoint,result
CC(C)C[C@H](NC(=O)CNC(=O)[C@H](Cc1ccccc1)NC(=O)[C@@H](NC(=O)[C@@H](N)[C@@H](C)O)C(C)C)C(=O)N[C@@H](CC(N)=O)C(=O)N[C@H](C(=O)N[C@@H](Cc1c[nH]c2ccccc12)C(=O)N[C@@H](CCCCN)C(=O)N[C@@H](CCCNC(=N)N)C(=O)N[C@@H](Cc1ccc(O)cc1)C(=O)N[C@@H](CO)C(=O)N[C@@H](CCCCN)C(=O)NCC(=O)N[C@@H](CCCCNc1ccc([N+](=O)[O-])cc1[N+](=O)[O-])C(N)=O)C(C)C,Spike glycoprotein RBD,binding,,,koff,0.00355 to 0.00371 s⁻¹
CNC(C)C1C(O)CC2(C)C3CCC4C(C)(C)C(NC)CCC45CC35CCC12C (stereo not drawn),Spike glycoprotein,"binding, BLI",,,koff,0.03 s⁻¹
O=C(O)c1ccc(Nc2cc(Nc3ccc(C(=O)O)cc3)c3c(=O)c(Nc4ccc(C(=O)O)cc4)c(-c4ccc(Nc5ccc(C(=O)O)cc5)c(Nc5ccc(C(=O)O)cc5)c4)oc3c2)cc1,Spike glycoprotein,spike protein activity,SARS-CoV-2,concentration not given,inhibition,inhibited
O=C(C=Cc1ccc(O)c(O)c1)OC1CC(O)(C(=O)O)CC(OC(=O)C=Cc2ccc(O)c(O)c2)C1O (stereo not drawn),Spike glycoprotein,binding,,,koff,0.0164 s⁻¹
CCCCCCCCCCCCCCCC(=O)N[C@@H](CCC(=O)NCCOCCOCCC(=O)NCCOCCOCCC(=O)NCCCC[C@H](NC(=O)[C@H](CC(=O)O)NC(=O)[C@H](CC(C)C)NC(=O)[C@H](Cc1ccc(O)cc1)NC(=O)[C@H](CCCCN)NC(=O)[C@H](CO)NC(=O)[C@H](Cc1ccc(O)cc1)NC(=O)[C@H](CC(=O)O)NC(=O)[C@H](CO)NC(=O)[C@@H](NC(=O)[C@H](Cc1ccccc1)NC(=O)[C@@H](NC(=O)CNC(=O)[C@H](CCC(N)=O)NC(=O)[C@@H](CO)NC(=O)[C@@H](N)Cc1c[nH]cn1)[C@@H](C)O)[C@@H](C)O)C(=O)N[C@@H](CCCNC(=N)N)C(=O)N[C@@H](CCCNC(=N)N)C(=O)N[C@@H](C)C(=O)N[C@@H](CCC(N)=O)C(=O)N[C@@H](CC(=O)O)C(=O)N[C@@H](Cc1ccccc1)C(=O)N[C@H](C(=O)N[C@@H](CCC(N)=O)C(=O)N[C@@H](Cc1c[nH]c2ccccc12)C(=O)N[C@@H](CC(C)C)C(=O)N[C@@H](CC(C)C)C(=O)N[C@@H](CC(N)=O)C(=O)N[C@H](C(=O)NCC(=O)NCC(=O)N1CCC[C@H]1C(=O)N[C@@H](CO)C(=O)N[C@@H](CO)C(=O)NCC(=O)N[C@@H](C)C(=O)N1CCC[C@H]1C(=O)N1CCC[C@H]1C(=O)N1CCC[C@H]1C(=O)N[C@@H](CO)C(N)=O)[C@@H](C)O)C(C)C)C(=O)O,,,"rhesus monkey, plasma","subcutaneous, 60 µg/kg, single dose",AUC(0-t),301 ng·h/mL
CC(C)C[C@H](NC(=O)[C@H](CC(=O)O)NC(=O)[C@H](CCC(=O)O)NC(=O)[C@H](C)NC(=O)[C@H](CCC(=O)O)NC(=O)[C@H](Cc1c[nH]cn1)NC(=O)[C@H](CC(N)=O)NC(=O)[C@H](Cc1ccccc1)NC(=O)[C@H](Cc1ccccc1)NC(=O)[C@H](CC(=O)O)NC(=O)[C@H](CC(C)C)NC(=O)[C@H](Cc1ccccc1)NC(=O)[C@@H](N)[C@@H](C)O)C(=O)N[C@@H](Cc1ccccc1)C(=O)N[C@@H](CSCc1ccc(S(=O)(=O)F)cc1)C(=O)O,"Spike glycoprotein, Omicron BA.2 RBD; ACE2 (Severe acute respiratory syndrome coronavirus 2, UniProt P0DTC2)",RBD binding to human ACE2,,"400 nM, SARS-CoV-2 Omicron BA.2 RBD",inhibition,88%
C=Cc1c(C)c2cc3nc(cc4[nH]c(cc5nc(cc1[nH]2)C(C)=C5CCC(=O)O)c(CCC(=O)OC)c4C)C1(C)C3=CC=C(C(=O)OC)C1C(=O)OC (stereo not drawn),"Spike glycoprotein, with TMPRSS2 (Severe acute respiratory syndrome coronavirus 2, UniProt P0DTC2)",NanoBiT reporter,,concentration not given,inhibition,inhibited
Cc1cc(C)n(-c2nc(-c3ccccc3)cc(=O)n2CC(=O)Nc2cccc([N+](=O)[O-])c2)n1,"Spike glycoprotein, HR1/HR2 domains (Severe acute respiratory syndrome coronavirus 2, UniProt P0DTC2)","β-galactosidase reporter, inhibitor, yeast two-hybrid",yeast AH109,1/2 MIC,inhibition,> 50%
CC[C@H](C)[C@H](NC(=O)[C@H](CCCCNC(=O)CN(CCNC(=O)CN(CCNC(=O)CN(CCNC(=O)CN(CCNC(=O)[C@H](CCCNC(=N)N)NC(C)=O)C(=O)Cn1ccc(N)nc1=O)C(=O)Cn1cnc2c(=O)[nH]c(N)nc21)C(=O)Cn1cnc2c(=O)[nH]c(N)nc21)C(=O)Cn1ccc(N)nc1=O)NC(=O)[C@H](CC(=O)O)NC(=O)[C@H](CO)NC(=O)[C@@H](NC(=O)[C@H](CCCNC(=N)N)NC(=O)[C@H](CCSC)NC(=O)[C@H](CO)NC(=O)[C@H](C)NC(=O)[C@H](CCC(=O)O)NC(=O)[C@H](C)NC(=O)[C@H](Cc1c[nH]cn1)NC(=O)CNC(=O)[C@H](CC(C)C)NC(=O)[C@H](CCC(=O)O)NC(=O)[C@H](CC(=O)O)NC(=O)[C@H](CC(C)C)NC(=O)[C@H](CC(C)C)NC(=O)[C@H](CCCNC(=N)N)NC(=O)[C@H](CCSC)NC(=O)[C@H](CCCC(=O)NCCN(CC(=O)NCCN(CC(=O)NCCN(CC(=O)NCCN(CC(=O)N[C@@H](CCCNC(=N)N)C(N)=O)C(=O)Cn1cnc2c(=O)[nH]c(N)nc21)C(=O)Cn1ccc(N)nc1=O)C(=O)Cn1ccc(N)nc1=O)C(=O)Cn1cnc2c(=O)[nH]c(N)nc21)NC(=O)[C@H](CCC(=O)O)NC(=O)[C@H](Cc1ccc(O)cc1)NC(=O)[C@@H](NC(=O)[C@H](CCCCN)NC(=O)[C@H](CCC(N)=O)NC(=O)[C@H](CC(C)C)NC(=O)[C@@H](NC(=O)[C@H](Cc1c[nH]c2ccccc12)NC(=O)[C@H](CCC(=O)O)NC(=O)[C@H](CCCCN)NC(=O)[C@H](CC(=O)O)NC(C)=O)[C@@H](C)CC)[C@@H](C)CC)C(C)C)C(=O)N[C@@H](Cc1ccc(O)cc1)C(=O)N[C@@H](CCC(=O)O)C(=O)N[C@@H](Cc1ccccc1)C(=O)N[C@@H](CCSC)C(=O)N[C@@H](CCCCN)C(=O)N[C@@H](CCCCN)C(N)=O,Spike glycoprotein,"binding, SPR",,,kon,1.9e+06 M⁻¹ s⁻¹
CC(C)C[C@H](NC(=O)CNC(=O)[C@H](Cc1ccccc1)NC(=O)[C@@H](NC(=O)[C@@H](NC(=O)c1cccc(S(=O)(=O)F)c1)[C@@H](C)O)C(C)C)C(=O)N[C@@H](CC(N)=O)C(=O)N[C@H](C(=O)N[C@@H](Cc1c[nH]c2ccccc12)C(=O)N[C@@H](CCCCN)C(=O)N[C@@H](CCCNC(=N)N)C(=O)N[C@@H](Cc1ccc(O)cc1)C(=O)N[C@@H](CO)C(=O)N[C@@H](CCCCN)C(=O)NCC(=O)N[C@@H](CCCCNc1ccc([N+](=O)[O-])cc1[N+](=O)[O-])C(N)=O)C(C)C,Spike glycoprotein RBD,binding,,,kon,10300 to 11600 M⁻¹ s⁻¹
CCCCCCCCCCCCCCCc1cccc(O)c1C(=O)O,Spike glycoprotein,"binding, biolayer interferometry",,,koff,0.00104 s⁻¹
CC(C)C[C@@H]1NC(=O)[C@H](CC(=O)O)NC(=O)[C@H](CCC(=O)O)NC(=O)[C@@H](NC(=O)[C@H](CCC(=O)O)NC(=O)[C@@H](N)Cc2c[nH]cn2)Cc2cn(nn2)CCCC[C@@H](C(=O)N[C@@H](Cc2ccc(O)cc2)C(=O)N[C@@H](CCC(N)=O)C(N)=O)NC1=O,Spike glycoprotein RBD,,,30 µM,inhibition,30%
